Assay results pooled from the literature.
Parts stem from different laboratories: compare values within a part only. Changes are numbered by the printed parent chain.

Sample 1
Target: CCND3, cyclin fold, Cln2 fusion (human)
Method: yeast growth competition, sequencing
Sample: yeast
Setting: weak parent motif
Reference: not given
Direction: higher = stronger binding
Parent: GMNC docking peptide (human); KNAKRNLSSEFAN
| Substitution | normalised enrichment score |
| --- | --- |
| L7R | -0.0195 |
| K4G | 0.139 |
| R5I | 0.313 |
| N6F | -0.11 |
| R5D | 0.0752 |
| L7K | 0.164 |
| A3Q | 0.141 |
| E10I | -0.102 |
| N2F | 0.279 |
| E10L | -0.0421 |
| K4F | 0.34 |
| N2I | 0.114 |
| F11Q | 0.145 |
| K4Q | 0.306 |
| L7S | 0.29 |

Sample 2
Target: RING finger protein unkempt homolog, zinc fingers 1-6, GST-SBP tag (UNK, Homo sapiens, UniProt Q9C0B0, residues 30-357)
UniProt Q9C0B0, sequence (30-357, looked up): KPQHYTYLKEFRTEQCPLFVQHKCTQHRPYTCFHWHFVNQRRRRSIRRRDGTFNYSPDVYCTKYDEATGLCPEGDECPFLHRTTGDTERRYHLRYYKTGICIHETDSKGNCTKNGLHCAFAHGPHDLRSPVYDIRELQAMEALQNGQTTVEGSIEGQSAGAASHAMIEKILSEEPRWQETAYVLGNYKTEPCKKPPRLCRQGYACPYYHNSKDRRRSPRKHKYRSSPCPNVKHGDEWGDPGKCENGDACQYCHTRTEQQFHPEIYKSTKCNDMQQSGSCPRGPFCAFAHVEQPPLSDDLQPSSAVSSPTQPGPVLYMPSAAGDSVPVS
Method: RNA Bind-n-Seq
Form: RNA
Sample: in vitro
Tested at: not given
Setting: RNA with constant flanks, human-mouse chimeric sites, ends assumed
Reference: input RNA pool
Direction: higher = stronger binding
Shared flanks, not repeated: GGGAGUUCUACAGUCCGACGAUC … CAACAGAGGAUUGAGCAUCA
| Strand | bound/input enrichment |
| --- | --- |
| ACAGUUAUAUUGUUGAGUUUCAUUUUCAUAUAUUCUUGUAGUGUCUGCUUGCCUGUGUCUUUUAGUAAAAUAAAAUAAGCCUUUGAAAAUAUUUUAGCAUGGUAUUUUUCUAAAAAUAAA | 5.02 ratio |
| AAGGUGAUAACCAUGUUUGUCCAACGACAGGUAUUUUCGGAGAGCAAAGAUGAGAUUGCGUUAGUCCUCUAUGGCACAGAUGGCACUGAUAAUGCCCUUGCUGGCAAGGACCAGUAUCAG | 0.128 ratio |
| GGCUGCUGGUGACUGUCCUGGAGUGGCUGGAGUUCCCCCGGAACCUGGGCCAGACUAAUUUUAGAAAAUGCCAAGUAGGAAGUUUGUUGAGGGUGAAGUGGUAAGAGGCCGAUGGCCUGG | 6.02 ratio |
| AUAGAUGAAAUUGAUGUGGACCAGGAAGGAAUUGCUGAAAUGAUGCUGGAUGAAAAUGCUAUAGCUCAGGUCCCACGCCCUGGCACAUCUUUGAAGCUCCCUGGCACUAACCAAACAGGA | 0.269 ratio |
| AUGGUUGUGUCUCUUGAUUGGGGUCUACAAGAUGACUUUUCCUGGCACAUAUUCCAAAGCAAAGACUUUGUUGCCUGCUGCUUAUUGUCUAAUUUACAGGGAUAUUUAAUUUUGUCAGGU | 0.266 ratio |
| CAGUCCCCGUGUCCCAGUGCAGGACGAGAACAUGGACAACUCAAAGCGGACCCUCUAUUGUAGUUCUUGAUUCUCGAGUGCCAUUAUUAUUGUUUGUCUUUUUUUUUUUUUUUUUAAAGA | 1.08 ratio |
| CGCUGGCCCAAGCUGAUGUAAAUGUUUGGCCUCCAUCUCUCAGGCACGUGUGCCUUCUCUUAGUCCCUUCUGGGUUGAUGUUAUGAAUCUCAGUACUGUGGUUUGAAAGCACCAGCUUUG | 0.47 ratio |

Sample 3
Target: Sal-like protein 4, full length isoform B (SALL4, Homo sapiens, UniProt Q9UJQ4-2, residues 1-616)
Method: universal PBM
Form: double-stranded DNA, one strand shown
Sample: in vitro
Tested at: not given
Setting: 8-mer, flanks averaged, mean of replicates
Direction: higher = stronger binding
| Strand | E-score |
| --- | --- |
| ATAGAACA | 0.229 |
| GACGGGCA | -0.163 |
| CTAGCAAA | 0.148 |
| ACCGCGTG | -0.312 |
| CGGGAACA | -0.0713 |
| CAGCGTCG | -0.213 |
| GATATTGA | 0.266 |
| TCTATTCA | 0.268 |
| TATCTTCA | 0.263 |
| AGTAGCCA | -0.0819 |
| AATAAAAC | 0.302 |
| GCCCCGGC | -0.381 |
| AACCACTT | 0.0633 |
| AAGTAGAC | -0.168 |
| GCATTCTA | 0.152 |
| CACAAGGG | -0.31 |
| GGCCCTAA | -0.13 |
| GGATTGTA | 0.133 |
| ATTAACAA | 0.317 |
| CGCGTCGA | -0.189 |

Sample 4
Target: RNA binding protein fox-1 homolog 2, RRM domain, GST-SBP tag (RBFOX2, Homo sapiens, UniProt O43251-10, residues 100-194)
Method: RNA Bind-n-Seq
Form: RNA
Sample: in vitro
Tested at: 365 nM
Setting: natural RNA segment, single round, ends assumed
Reference: no-protein control
Direction: higher = stronger binding
Shared flanks, not repeated: GGGAGUUCUACAGUCCGACGAUC … UGGAAUUCUCGGGUGCCAA
Residues (chain): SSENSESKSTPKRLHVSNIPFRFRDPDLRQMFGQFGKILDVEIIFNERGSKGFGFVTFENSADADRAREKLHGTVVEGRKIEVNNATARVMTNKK
| Strand | RBNS enrichment (R) |
| --- | --- |
| CGGUGUAAUUGCAUUAUAGCUAUGUGCCUUGUGGUAAGCACUAUGUACUCUCUGCAUUGUCCAAAUGUCUUACUUUAAGGUGUUUCUUCUGUCUUUUCGACUAAGUAGUA | 0.541 |
| UCCCCAUUUACAUUUUCCCCACUCUGUCUGCCUGCAUCUCCUCUGUUCCGGGUAGGCCUUGAUAUCACCUCUGGGACUGUGCCUUGCUCACCGAAACCCGCGCCCAGGAG | 2.81 |
| CUUCAAUGCUAGAAAAUCGAGUUGGCAAAAUGGGGUUUGGGCCCCUCAGAGCCCUGCCCUGCACCCUUGUACAGUGUCUGUGCCAUGGAUUUCGUUUUUCUUGGGGUACU | 0.34 |
| GAUGCACCUGCCUCCCUUCAUCCUCUCUCUGGGGCUGCGUUGCCUCGGCAAUGCCCCUUUUGGAGCAUGGAAGGGCUUCAGGGAUGGGGCAGCCUGGAAGGACAGGUGGA | 0.75 |
| ACAAGAUAUGAAGAAAAUGGCACUCAUUGUGGCCUUGUUGAAUUAUGUUGUGUAUGUUUUAACAUCUCUGAUGCUGUGUUACUAAAAUUACAAGGACCUGCUUUUUAAAA | 0.71 |
| UUUGCUCUUAAGUUACAAGAGACCACAUCCACCCAGGGAUUAGGGUUCAAGUAGCAGCUGCUAACCCUUGCACCAGCCCUUGUGGGACUCCCAACACAAGACAAAGCUCA | 0.55 |
| AUUUCCUCUACCUUUCUGCUCUUAAACUGCUUCUCUGCUCUGAGAAGCCCAGCUACCUGCCUUCACUGAAAUAUACCUCAGGCUGAGACGGGCGGGACAGCAGGUCAGUG | 0.242 |
| GAAGCUACUAAUUUUAUGUCAAGCUUUAAAGUCCAUAAUUGUUAUCUUCAGAAAUAUUAUUUGACCUACAGUAUGUUUAAAUCAAUUUAAUAAAAUCACUUUAUAACAGG | 0.666 |
| CUCCUGGCCUCCCAGGUCACGCCAAACAGGCUAGAUCUUCCUGAGGACAGCCACCCAGGUCUGCAGCCCCACAAGGCCCUGCUCCUGAUCAGCCUCAGCCAGAGGACGAG | 0.206 |
| UCCCUCAGCAGAAACGUGUUUAUCAGCAAGUCGUGAGUCAAACUGCUGCCUUUUAAAAAACCCACAAAAUGCUGAUUCAGUUCAAAAUUAAUGCAAAUGUUUCAAAACUG | 1.02 |
| UGGAAUUUAAAAAUAUCGAUAUCACCAUGAUUUAAUCCAGAUCUGGGAUUAUGUAGCUAAACAUUGUGAUGAUUAUUAUUUAAAACCAUUAUUUAAUAAGAGUAAAAAUA | 0.644 |
| UGUAUUCAGACAGUUAGAGUUUUGGAAGCACACUGGUGAGUAGCUUUUUGCCCCUCCUUCCUUAGCAAGCCCGUUUGAUUGACAGCUCUCCUGCUCUGAGUUCACUCUGU | 0.337 |

Sample 5
Target: Phosphate system positive regulatory protein PHO4, full length, GST-tagged (PHO4, Saccharomyces cerevisiae, UniProt P07270, residues 1-312)
Method: competition protein-binding microarray
Form: double-stranded DNA, one strand shown
Sample: in vitro
Tested at: 2 µM
Setting: whole 60-bp probe, lowest competitor level
With: Cbf1 competitor, 0.05 µM
Direction: higher = stronger binding
Shared flanks, not repeated: … GTCTTGATTCGCTTGACGCTGCTG
Target sequence (chain): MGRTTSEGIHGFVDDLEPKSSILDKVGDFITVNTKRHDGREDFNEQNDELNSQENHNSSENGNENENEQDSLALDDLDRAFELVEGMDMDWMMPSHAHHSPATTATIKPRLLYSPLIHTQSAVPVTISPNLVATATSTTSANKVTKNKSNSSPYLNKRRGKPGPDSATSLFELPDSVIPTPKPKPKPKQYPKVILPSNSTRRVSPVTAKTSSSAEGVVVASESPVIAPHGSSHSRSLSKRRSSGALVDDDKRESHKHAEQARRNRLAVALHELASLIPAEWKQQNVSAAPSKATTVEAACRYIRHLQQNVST
| Strand | fluorescence intensity [a.u.] |
| --- | --- |
| TGGCCGTATCGCTCCATACGAGCCAATCAGGGCCCC | 2250 |
| CGTCCTAGTGATTGGCATGTGGGTGCCATGAGGAAG | 11500 |
| TCGGAAATTACATGGTGCGTGCTGTGGCTTTTTGTG | 10700 |
| TGAAACATTTTTCAACGCGTGTAACAATTTGCATCT | 8760 |
| GGACATAACATCGGACTTGTGACGGACGAATCTTTG | 3640 |
| CGACCACATATATGGAACGTGGTCGAAATACAAAGA | 13300 |
| TGCAAGCTTTAAAGCACCGTGGTGATTCTCGTAATG | 6820 |
| AGGGTGTTGATGGTGCTCGTGTTGAATACATTTGTG | 8630 |
| CCACAAGGAATTTGGAACGTGCCGACGTTACTATTG | 15100 |
| TGTAAATATATCCATCACGTGAAATTAGTGGCGAGG | 12700 |
| TCAAGCTATGGGATGCGCGTGCTTTGCAACTGGCTA | 10900 |
| GAAGTCGGTTCATTGCATGTGCTGTTACACTTCTTA | 8440 |
| CGGGGTTAAGTTTGAACGGTGGGTGGCTTGCAGCAG | 4800 |
| ACTTTGTTATTAATCCACGTGAGGACCAAATCTATG | 15600 |
| GAAAGGGTTTAGTACCACATGCTATGATGCCCACTG | 10100 |
| TTGCTGCGATTGCTGCTCGTGAAACGGAAAAAGCTA | 4430 |
| ACATCAAGGCACAATCACCTGATGAGTCTGCCTTAG | 4640 |
| CAGAAGCCAAATTGGCGCGTGAGTCTGAGCTGCCTT | 5450 |
| TTGTTCGAGTCTTTGCACGATCAAGCCTTTACTCTG | 4620 |
| TCACTCTGCCTTCATCACATGCTTTTTTCTATGGTT | 9560 |
| GAAGGCCGATGCTGTGCCGTGATGGTCTTTTCCGCA | 3290 |
| GTTGAAGTTACCCGTCACGTCAAAGTTTTCACCGGA | 3820 |
| CTTTCCCGATCTTGGTAGGTGGGTGTAGCACATTTG | 5040 |
| CATTCTGCCACTGACCACGTGGTAACGCCAACTACG | 18500 |
| CTTTCCCGATCTTGCAAGGTGGGTGTAGCACATTTG | 4740 |

Repeated from above (sample 3):
| Strand | E-score |
| --- | --- |
| CGGGAACA | -0.0713 |
| CAGCGTCG | -0.213 |
| GATATTGA | 0.266 |
| TCTATTCA | 0.268 |
| TATCTTCA | 0.263 |
| AGTAGCCA | -0.0819 |
| AATAAAAC | 0.302 |
| GCCCCGGC | -0.381 |
| AACCACTT | 0.0633 |
| AAGTAGAC | -0.168 |
| GCATTCTA | 0.152 |
| CACAAGGG | -0.31 |
